Results from different studies.
Organism: Plasmodium falciparum

SMILES | method | cell line | strain | time | baseline | selectivity index
CC1CCC2C(C)C(CCCN=[N+]=[N-])OC3OC4(C)CCC1C32OO4 (centres unmarked) |  |  | W2 | 72 h | HepG2 over blood-stage parasites | > 1620
CCC1=C(C)C(=CNC23CC4CC(CC(C4)C2)C3)N=C1c1ccc[nH]1 |  | HepG2 | D6 |  | HepG2 IC50 over D6 IC50 | 600
c1cncc(CCCOCCCCCCCCOC2CCCCO2)c1 (centres unmarked) |  |  | W2 chloroquine-resistant |  | IC50 WI-26VA4 over IC50 W2 | 1
C[C@H]1[C@@H](CCCOc2cccc(OCCC[C@H]3O[C@@H]4O[C@@]5(C)CC[C@H]6[C@H](C)CC[C@@H]([C@H]3C)[C@@]46OO5)c2)O[C@@H]2O[C@@]3(C)CC[C@H]4[C@H](C)CC[C@@H]1[C@@]24OO3 |  |  | W2 | 72 h | HepG2 over blood-stage parasites | 2.88
OCCCCCCCCCCCCOCCCc1cccnc1 |  |  | W2 chloroquine-resistant |  | IC50 WI-26VA4 over IC50 W2 | 2.2
CC1=CC(c2ccc[nH]2)=NC1=CNC12CC3CC(CC(C3)C1)C2 |  | HepG2 | D6 |  | HepG2 IC50 over D6 IC50 | 5310
Cc1ccc2c(c1)[n+]([O-])c(C#N)c(-c1ccco1)[n+]2[O-] |  |  | K1 chloroquine-resistant |  | KB IC50 over K1 IC50 | 7.82
C#CCOCCCC1OC2OC3(C)CCC4C(C)CCC(C1C)C24OO3 (centres unmarked) |  |  | W2 | 72 h | HepG2 over blood-stage parasites | > 16600
CCOC(=O)c1cn(-c2nc(C)n[nH]2)nn1 | SYBR Green I |  | W2 |  | CC50 HepG2 over IC50 W2 | ≥ 3
CCCCCCN=Cc1[nH]c(-c2ccc[nH]2)cc1OC |  | HepG2 | D6 |  | HepG2 IC50 over D6 IC50 | 785
N#Cc1c(-c2ccco2)[n+]([O-])c2ccc(Cl)cc2[n+]1[O-] |  |  | 3D7 chloroquine-sensitive |  | KB IC50 over 3D7 IC50 | 7.1
c1cncc(CCCOCCCCCCCCCCOC2CCCCO2)c1 (centres unmarked) |  |  | W2 chloroquine-resistant |  | IC50 WI-26VA4 over IC50 W2 | 0.4
N#Cc1c(-c2ccco2)[n+]([O-])c2ccc(F)cc2[n+]1[O-] |  |  | K1 chloroquine-resistant |  | KB IC50 over K1 IC50 | 9.47
CCC1=C(C)C(c2ccc[nH]2)=NC1=CNC12CC3CC(CC(C3)C1)C2 |  | HepG2 | D6 |  | HepG2 IC50 over D6 IC50 | 237
N#Cc1c(-c2ccco2)[n+]([O-])c2ccccc2[n+]1[O-] |  |  | 3D7 chloroquine-sensitive |  | KB IC50 over 3D7 IC50 | 8.69
COC1=CC(c2ccc[nH]2)=NC1=CNC1CCCC1 |  | HepG2 | D6 |  | HepG2 IC50 over D6 IC50 | 448
COc1ccc2nc3cc(Cl)ccc3c(NCCN3C(=O)c4ccc5c6c(ccc(c46)C3=O)C(=O)N(CCN(C)C)C5=O)c2c1 |  | NIH3T3 | 3D7 |  | CC50 over IC50 | > 4.62
N#Cc1c(-c2ccco2)[n+]([O-])c2ccc(C(F)(F)F)cc2[n+]1[O-] |  |  | 3D7 chloroquine-sensitive |  | KB IC50 over 3D7 IC50 | 5.66
c1ccc2c(NCCNc3ncnc4cc(OCC5CCN(CCNc6ccnc7ccccc67)CC5)ccc34)cccc2c1 |  | HepG2 | NF54 |  | HepG2 cytotoxicity over P. falciparum activity | 42
CCC1=CC(=CNC23CC4CC(CC(C4)C2)C3)N=C1c1ccc[nH]1 |  | HepG2 | D6 |  | HepG2 IC50 over D6 IC50 | 130
COc1ccc2c(c1)[n+]([O-])c(C#N)c(-c1ccco1)[n+]2[O-] |  |  | K1 chloroquine-resistant |  | KB IC50 over K1 IC50 | 11.3
COC1=CC(c2ccc[nH]2)=NC1=CNC1CCCCCC1 |  | HepG2 | D6 |  | HepG2 IC50 over D6 IC50 | 439
C[C@H]1[C@@H](CCCNC(=O)CC[C@H]2O[C@@H]3O[C@@]4(C)CC[C@H]5[C@H](C)CC[C@@H]([C@H]2C)[C@@]35OO4)O[C@@H]2O[C@@]3(C)CC[C@H]4[C@H](C)CC[C@@H]1[C@@]24OO3 |  |  | W2 | 72 h | HepG2 over blood-stage parasites | 1320

Excerpt of the above:
SMILES | method | cell line | strain | time | baseline | selectivity index
CC1=CC(c2ccc[nH]2)=NC1=CNC12CC3CC(CC(C3)C1)C2 |  | HepG2 | D6 |  | HepG2 IC50 over D6 IC50 | 5310
Cc1ccc2c(c1)[n+]([O-])c(C#N)c(-c1ccco1)[n+]2[O-] |  |  | K1 chloroquine-resistant |  | KB IC50 over K1 IC50 | 7.82
